Measurements from different studies.
Each line is one published result; not all experiments were run side by side. Converted amounts (≈) assume the structure as drawn.
Organism: Candida albicans

`COc1ccc(N2C(=O)C=CC2=O)cc1` — result for mRNA level: “decreased” (qRT-PCR, refers to: HWP1; 1 µg/mL, 12 h).
With `CC[C@@H](C)[C@@H](NC(=O)[C@@H](C)NC(=O)[C@@H](CCCCN)NC(=O)[C@@H](CC(C)C)NC(=O)[C@@H](C)NC(=O)[C@H](NC(=O)[C@@H](Cc1c[nH]cn1)NC(=O)[C@@H](CC(C)C)NC(=O)[C@H](NC(=O)[C@H](NC(=O)[C@@H](CCCCN)NC(=O)[C@@H](CCCCN)NC(=O)[C@@H](C)NC(=O)[C@@H](CO)NC(=O)[C@@H](CCCCN)NC(=O)[C@@H](Cc1ccccc1)NC(=O)[C@H](NC(=O)[C@@H](CCCCN)NC(=O)[C@@H](CC(C)C)NC(=O)[C@@H](Cc1ccccc1)NC(=O)[C@@H](CO)NC(=O)[C@@H](CCCCN)NC(=O)[C@@H](Cc1c[nH]c2ccccc12)NC(=O)[C@@H](CCCCN)NC(C)=O)[C@H](C)O)[C@H](C)O)C(C)C)[C@H](C)O)C(=O)N[C@H](CO)C(=O)N[C@H](CO)C(N)=O` the MIC90 was 50 µg/mL (≈ 16.7 µM) (ATCC 24433; 48 h, 30 °C).
`O.O=[N+]([O-])[O-].O=c1cc[nH]c(=S)[nH]1.[Ag+].c1ccc(P(c2ccccc2)c2ccccc2)cc1.c1ccc(P(c2ccccc2)c2ccccc2)cc1`: “inhibition zone diameter” 20 mm (MTCC 227, DMSO; 0.1 mL of 50 mg/mL in 8 mm well, 18 to 24 h).
`CN1CC(=O)N=C1N.C[C@H](CCC(=O)O)[C@H]1CC[C@H]2[C@@H]3[C@H](O)C[C@@H]4C[C@H](O)CC[C@]4(C)[C@H]3CC[C@]12C` — result for inhibition zone: “inactive” (TISTR 5554; 1 mg per disc, 18 to 24 h, 37 °C, 6 mm disc).
With `CC(C)C[C@@H](NC(=O)[C@H](C)NC(=O)CNC(=O)[C@@H](NC=O)C(C)C)C(=O)N[C@@H](C)C(=O)N[C@@H](C(=O)N[C@H](C(=O)N[C@@H](C(=O)N[C@@H](Cc1c[nH]c2ccccc12)C(=O)N[C@H](CC(C)C)C(=O)N[C@@H](Cc1c[nH]c2ccccc12)C(=O)N[C@H](CC(C)C)C(=O)N[C@@H](Cc1c[nH]c2ccccc12)C(=O)N[C@H](CC(C)C)C(=O)N[C@@H](Cc1c[nH]c2ccccc12)C(=O)NCCO)C(C)C)C(C)C)C(C)C` the inhibition was ≤ 10% (concentration not given).
`CC[C@H](C)[C@H](NC(=O)[C@@H]1CCCN1C(=O)[C@H](CCCNC(=N)N)NC(=O)[C@H](CC(=O)O)NC(=O)[C@H](CCCCN)NC(=S)Nc1ccc2c(c1)C(=O)OC21c2ccc(O)cc2Oc2cc(O)ccc21)C(=O)N[C@@H](Cc1ccccc1)C(=O)N[C@@H](CCC(N)=O)C(=O)N[C@@H](CC(C)C)C(=O)N[C@@H](CC(N)=O)C(=O)N[C@H](C(=O)N[C@@H](CO)C(=O)N[C@@H](Cc1ccc(O)cc1)C(=O)N[C@@H](Cc1c[nH]c2ccccc12)C(=O)N[C@@H](CCC(=O)O)C(=O)N[C@@H](CCSC)C(=O)NCC(=O)N[C@@H](C)C(=O)O)[C@@H](C)O`: “duration of growth inhibition” 24 h (10-fold MIC, 25 °C).
For `CN1CC(=O)N=C1N.C[C@H](CCC(=O)O)[C@H]1CC[C@H]2[C@@H]3CC[C@@H]4C[C@H](O)CC[C@]4(C)[C@H]3CC[C@]12C`, inhibition zone read “inactive” (TISTR 5554; 1 mg per disc, 18 to 24 h, 37 °C, 6 mm disc).
`CCCCCCCCCCCC(=O)C(C)C(=O)N1CCC[C@H]1C(=O)NC(C)(C)C(=O)NC(C)(C)C(=O)NC(C)(C)C(=O)N[C@](C)(CC)C(=O)NCCC(=O)N[C@@H](C)C(=O)N[C@](C)(CC)C(=O)N[C@@H](C)C(=O)N[C@@H](CC(C)C)C(=O)N[C@](C)(CC)C(=O)NCCC(=O)N[C@@H](C)C(=O)N[C@](C)(CC)C(=O)NCCC(=O)N[C@@H](C)C(=O)NC(C)(C)C(=O)NC(C)(C)C(=O)NC(C)(C)C(=O)N[C@@H](C)C(=O)N[C@@H](CC(=O)O)C(=O)O` (stereo partly drawn): “cell surface β-1,3-glucan” “decreased” (aniline blue staining; ATCC 90028; 1 µg/mL (½ MIC), 6 h).
The antifungal concentration of `CC[C@H](C)[C@H](NC(=O)[C@H](CCCNC(=N)N)NC(=O)[C@H](CCCNC(=N)N)NC(=O)[C@H](CCCCN)NC(=O)[C@H](CC(N)=O)NC(=O)[C@H](CS)NC(=O)[C@H](Cc1ccc(O)cc1)NC(=O)CNC(=O)CNC(=O)[C@H](CCCNC(=N)N)NC(=O)[C@H](CCCCN)NC(=O)[C@H](CCCNC(=N)N)NC(=O)[C@H](CCCCN)NC(=O)[C@H](CC(C)C)NC(=O)[C@H](CC(C)C)NC(=O)[C@H](CS)NC(=O)[C@H](Cc1c[nH]cn1)NC(=O)[C@H](C)NC(=O)[C@H](C)NC(=O)[C@H](CS)NC(=O)[C@H](C)NC(=O)[C@H](C)NC(=O)[C@H](Cc1c[nH]cn1)NC(=O)[C@H](CC(N)=O)NC(=O)[C@@H](NC(=O)[C@H](CCCCN)NC(=O)[C@@H](NC(=O)CNC(=O)[C@H](CCCCN)NC(=O)[C@H](C)NC(=O)[C@H](CCC(=O)O)NC(=O)[C@H](C)NC(=O)[C@H](CO)NC(=O)[C@H](CC(C)C)NC(=O)[C@H](CC(C)C)NC(=O)[C@H](CC(=O)O)NC(=O)[C@H](CS)NC(=O)[C@@H](NC(=O)[C@@H](N)C(C)C)[C@@H](C)O)C(C)C)C(C)C)C(=O)N[C@@H](CS)C(=O)N[C@H](C(=O)N[C@@H](CS)C(=O)N[C@@H](CCCNC(=N)N)C(=O)N[C@@H](CC(N)=O)C(N)=O)C(C)C` is reported as > 4.5 µg/mL (ATCC 90028).

For quick reference, copied from above:
For `CN1CC(=O)N=C1N.C[C@H](CCC(=O)O)[C@H]1CC[C@H]2[C@@H]3CC[C@@H]4C[C@H](O)CC[C@]4(C)[C@H]3CC[C@]12C`, inhibition zone read “inactive” (TISTR 5554; 1 mg per disc, 18 to 24 h, 37 °C, 6 mm disc).
`CCCCCCCCCCCC(=O)C(C)C(=O)N1CCC[C@H]1C(=O)NC(C)(C)C(=O)NC(C)(C)C(=O)NC(C)(C)C(=O)N[C@](C)(CC)C(=O)NCCC(=O)N[C@@H](C)C(=O)N[C@](C)(CC)C(=O)N[C@@H](C)C(=O)N[C@@H](CC(C)C)C(=O)N[C@](C)(CC)C(=O)NCCC(=O)N[C@@H](C)C(=O)N[C@](C)(CC)C(=O)NCCC(=O)N[C@@H](C)C(=O)NC(C)(C)C(=O)NC(C)(C)C(=O)NC(C)(C)C(=O)N[C@@H](C)C(=O)N[C@@H](CC(=O)O)C(=O)O` (stereo partly drawn): “cell surface β-1,3-glucan” “decreased” (aniline blue staining; ATCC 90028; 1 µg/mL (½ MIC), 6 h).
